Assay results of several laboratories.
A part holds a random share of what one study measured.

Study 1
Target: RING finger protein unkempt homolog, zinc fingers 1-6, GST-SBP tag (UNK, Homo sapiens, UniProt Q9C0B0, residues 30-357)
Chain of UniProt Q9C0B0 (30-357, looked up): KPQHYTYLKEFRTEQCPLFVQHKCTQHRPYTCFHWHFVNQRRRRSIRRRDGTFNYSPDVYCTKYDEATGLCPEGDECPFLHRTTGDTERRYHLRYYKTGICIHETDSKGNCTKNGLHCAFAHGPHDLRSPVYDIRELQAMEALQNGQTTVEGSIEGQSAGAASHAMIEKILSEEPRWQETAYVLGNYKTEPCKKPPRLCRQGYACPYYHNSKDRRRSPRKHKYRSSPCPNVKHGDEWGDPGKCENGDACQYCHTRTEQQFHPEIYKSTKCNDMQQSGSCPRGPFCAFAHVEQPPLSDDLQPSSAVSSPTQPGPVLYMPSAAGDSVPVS
Technique: RNA Bind-n-Seq
Form: RNA
Medium: in vitro
Tested at: not given
Notes: RNA with constant flanks, human and mouse sites, ends assumed
Baseline: input RNA pool
Reading: higher = stronger binding
Sequence | bound/input enrichment
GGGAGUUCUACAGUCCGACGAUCGAGAAAGAAAUCCCACCAAAGGAGAUGGAGAAAUCAAAAAUUAAACGACUGUAUAAAUUAUUAGAGAUCUGGAUCGAGUUUGGGCGCAUCAAACUCCUUCAAGGUUAUCAUCCGAACGACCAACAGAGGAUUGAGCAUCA | 0.429 ratio
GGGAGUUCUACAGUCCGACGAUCGAAGAUGGGCCUCCAGAGCUCCUGUUUAUUCAUGGAGGGCACACUGCCAAGAUUUCUGACUUCAGCUGGAAUCCCAAUGAACCUUGGGUCAUUUGCUCUGUGUCUGAAGAUAACAUCAUGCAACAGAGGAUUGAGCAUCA | 0.172 ratio
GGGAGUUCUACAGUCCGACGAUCCCAUAUCGAGCCACUUUUAUUGCAGACAAUGAGCUGUGGGUUGUCACAUCAUUCAUGGCAUACGGUUCUGCAAAAGAUCUCAUCUGUACACACUUCAUGGAUGGCAUGAAUGAGCUGGCGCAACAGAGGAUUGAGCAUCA | 0.117 ratio
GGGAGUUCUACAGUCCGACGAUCUUAUUUGUCUUUAGCAUAUUCAAAAGAAAGCUGCUGAAUGGAAAGUCAAGAUAGAAAUUAUUGCAGAGCUUCGAUAUGAUCUACCAGCAUUAUACAACUUUCAUAAAAAGAAAUCUGUGGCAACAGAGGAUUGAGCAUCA | 0.406 ratio
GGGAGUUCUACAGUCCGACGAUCCUGGUGGCUGGUAGUAUAAUUGGAGCGUUGUUGGGCGCGCCCAUGGGAAGCUUGCUGAUGGCCCUGGAGAAGUACUCCGGUGAGACGGUUCAGGAGAGAAGGCAGAAGGAAUGGAAGGCCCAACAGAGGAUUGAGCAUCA | 0.464 ratio
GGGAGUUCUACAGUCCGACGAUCUGGACAAACCAUAAAUUCAAUGUGUCUGCCACUCCAGAGCAAUACGUUCCUUAUUCCACCACUAGAAAGAAGAUUCAUGAAUGGGUUCCACCUUCGACACCUUACAAGUGACCGCAGUGACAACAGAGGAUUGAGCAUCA | 0.495 ratio
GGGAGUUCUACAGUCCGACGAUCCUGUGACCACAAGAUCCUACCUGAGUGGCAGCUGAAGUUGACUCCCUCUCCUUGCCUGAACCCCCCCCCACUGCCCCCCCAUCCCCCAGUGUCGGCUGAGAUGUUGCCUCUGCACGGUUCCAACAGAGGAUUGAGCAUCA | 1.32 ratio
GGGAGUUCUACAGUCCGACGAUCGUGAAGACAUCACUUCCCCUCGGAGUCCCCUGAGUAUUUACAAGCCUCAGCAGGGCAGCAUAGCUAUGUUCUGUUUGCCGUUUGUUGGUUUGCUUCUGUAUAGGUCUCUUUCCUUCCUCCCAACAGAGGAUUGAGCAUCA | 0.332 ratio
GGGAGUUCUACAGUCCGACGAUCUGCUAAAUUUGCAGCUUGCUAAUUCCUCCUGCUUUCUCCUUCCUUCCUUCUUCUGGCUCACUCCCUGCCCCGAUACCAAAGUCUGGUUUAUAUUCAGUGCAAAUUGGAGCAAACCCUACCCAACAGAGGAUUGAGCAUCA | 0.307 ratio
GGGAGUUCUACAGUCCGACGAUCAAUUCUGGAGGGCUGUGAUUUUUCCAGUAUUAAACAUGCAUGCGUUGAUCUUGCAGUUUAUUUCUCAUUGUGUAUGUAUAUAUAGCUUUUCUCUGCAGCACGAUUCCCUUUUGAUAAGGCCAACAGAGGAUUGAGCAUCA | 0.195 ratio
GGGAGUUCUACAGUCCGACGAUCCCGCCUCGGGUCGUGGAGCCAGGAGCGACGUCACCGCCAUGGCAGGCAUCAAAGCUUUGAUUAGUUUGUCCUUUGGAGGAGCAAUCGGACUGAUGUUUUUGAUGCUUGGAUGUGCCCUUCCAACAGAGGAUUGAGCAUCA | 0.139 ratio

Study 2
Target: Sal-like protein 4, full length isoform B (SALL4, Homo sapiens, UniProt Q9UJQ4-2, residues 1-616)
Technique: universal PBM
Form: double-stranded DNA, one strand shown
Medium: in vitro
Tested at: not given
Notes: 8-mer, flanks averaged, mean of replicates
Reading: higher = stronger binding
Sequence | E-score
GAAATGGC | -0.0309
AGTAGCGC | -0.0663
ATGGACCA | 0.0459
AAGGCTAG | 0.125
GCCGTACA | -0.0563
TCCCAGAA | -0.0693
ACTTATAC | 0.26
CGATCGAG | -0.221
ATACCTAC | 0.2

Study 3
Target: Histone acetyltransferase KAT6A, winged helix 2, GST fusion (KAT6A, Homo sapiens, UniProt Q92794, residues 85-181)
Technique: protein binding microarray
Form: double-stranded DNA, one strand shown
Medium: in vitro
Tested at: not given
Notes: 8-mer, flanks averaged, mean of 2 arrays, mostly near background
Baseline: not given
Reading: higher = stronger binding
Construct (chain): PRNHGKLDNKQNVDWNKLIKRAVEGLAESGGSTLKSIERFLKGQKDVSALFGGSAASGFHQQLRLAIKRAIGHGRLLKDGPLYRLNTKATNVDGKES
Sequence | E-score
ACTTGGAG | -0.0761
ATGGTAGG | -0.113
CCCCAATC | -0.0608
CGCCTATC | -0.109
ACCCAAAA | 0.148
AAATGATC | -0.071
AGGGTCTC | -0.122
ATAACGGA | -0.0555
TCATGGGA | -0.0905
CAGTCCAG | -0.0307

Mixed results
Molecule | target | assay | test system | setting | how to read | measurement | value
PhoQ, residues 284 288 289 292 302 303 SLANKL | PhoP, residues 12 14 15 18 19 NFCKL (Escherichia coli, UniProt P23836) | Sort-seq, measured: YFP reporter | E. coli | PhoQ-PhoP variant library, added: 10 µM Mg2+ | baseline: high Mg2+ state, higher = stronger signaling | fold induction | 0.639
